Assay results of several laboratories.
Parts stem from different laboratories: compare values within a part only.
Sequence of UniProt P41240 (whole entry, looked up): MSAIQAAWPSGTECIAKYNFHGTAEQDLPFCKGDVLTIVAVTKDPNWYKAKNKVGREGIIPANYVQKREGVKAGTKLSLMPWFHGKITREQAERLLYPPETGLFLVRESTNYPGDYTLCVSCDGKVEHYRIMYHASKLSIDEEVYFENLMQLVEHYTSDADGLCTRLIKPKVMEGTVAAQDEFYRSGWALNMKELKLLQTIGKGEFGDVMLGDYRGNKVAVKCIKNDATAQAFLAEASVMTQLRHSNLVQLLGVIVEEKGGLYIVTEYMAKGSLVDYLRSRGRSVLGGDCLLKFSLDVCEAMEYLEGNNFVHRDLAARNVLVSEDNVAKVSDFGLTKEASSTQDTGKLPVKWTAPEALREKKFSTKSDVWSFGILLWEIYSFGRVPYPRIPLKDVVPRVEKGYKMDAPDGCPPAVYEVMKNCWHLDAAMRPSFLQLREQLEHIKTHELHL
Sequence of UniProt O14757 (whole entry, looked up): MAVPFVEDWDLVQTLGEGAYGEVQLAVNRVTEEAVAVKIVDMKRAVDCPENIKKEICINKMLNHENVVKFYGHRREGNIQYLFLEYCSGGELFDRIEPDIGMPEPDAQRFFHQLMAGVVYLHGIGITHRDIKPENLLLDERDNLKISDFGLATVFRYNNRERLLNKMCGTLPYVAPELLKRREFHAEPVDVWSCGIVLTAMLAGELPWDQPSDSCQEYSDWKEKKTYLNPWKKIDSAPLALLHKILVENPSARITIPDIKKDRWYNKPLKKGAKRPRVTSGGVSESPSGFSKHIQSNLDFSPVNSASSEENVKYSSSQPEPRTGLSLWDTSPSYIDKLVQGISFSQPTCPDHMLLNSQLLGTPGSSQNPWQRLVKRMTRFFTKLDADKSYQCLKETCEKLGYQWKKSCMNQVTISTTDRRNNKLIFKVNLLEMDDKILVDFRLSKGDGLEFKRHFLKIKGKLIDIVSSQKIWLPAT

Sample 1 — technique: universal PBM; molecule type: double-stranded DNA, one strand shown; matrix: in vitro; concentration: not given; reading: higher = stronger binding; measurement: E-score
Target: Sal-like protein 4, full length isoform B (SALL4, Homo sapiens, UniProt Q9UJQ4-2, residues 1-616)
Notes: 8-mer, flanks averaged, mean of replicates
Residues (chain): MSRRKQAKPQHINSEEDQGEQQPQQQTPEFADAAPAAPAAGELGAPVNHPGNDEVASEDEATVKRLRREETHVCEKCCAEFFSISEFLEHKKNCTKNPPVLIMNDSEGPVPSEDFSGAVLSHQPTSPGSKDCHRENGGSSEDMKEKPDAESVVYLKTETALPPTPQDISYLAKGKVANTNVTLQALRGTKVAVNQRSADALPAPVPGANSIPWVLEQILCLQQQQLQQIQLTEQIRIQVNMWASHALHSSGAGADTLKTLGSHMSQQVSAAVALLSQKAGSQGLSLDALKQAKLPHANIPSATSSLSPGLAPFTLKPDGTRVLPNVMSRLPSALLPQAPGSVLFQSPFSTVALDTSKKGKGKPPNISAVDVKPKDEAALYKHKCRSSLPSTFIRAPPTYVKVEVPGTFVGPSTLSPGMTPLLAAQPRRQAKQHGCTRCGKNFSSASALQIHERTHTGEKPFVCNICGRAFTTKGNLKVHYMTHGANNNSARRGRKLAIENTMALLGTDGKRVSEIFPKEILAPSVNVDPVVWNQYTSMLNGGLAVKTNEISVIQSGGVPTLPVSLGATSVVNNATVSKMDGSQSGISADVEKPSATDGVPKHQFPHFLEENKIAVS
ACACCGCG: -0.33
ATTATGCA: 0.314
CGATTACA: 0.121
AACAGACC: 0.0711
CACTGCTG: -0.198
TAATAGTA: 0.308
AGCTGAAG: -0.0998
GACCCGTA: -0.277

Sample 2 — technique: competition protein-binding microarray; molecule type: double-stranded DNA, one strand shown; matrix: in vitro; concentration: 2 µM; with: Pho4 competitor, 0.05 µM; reading: higher = stronger binding; measurement: fluorescence intensity; shared flanks, not repeated: … GTCTTGATTCGCTTGACGCTGCTG
Target: Centromere-binding protein 1, full length, His-tagged (CBF1, Saccharomyces cerevisiae, UniProt P17106, residues 1-351)
Sequence of UniProt P17106 (whole entry, looked up): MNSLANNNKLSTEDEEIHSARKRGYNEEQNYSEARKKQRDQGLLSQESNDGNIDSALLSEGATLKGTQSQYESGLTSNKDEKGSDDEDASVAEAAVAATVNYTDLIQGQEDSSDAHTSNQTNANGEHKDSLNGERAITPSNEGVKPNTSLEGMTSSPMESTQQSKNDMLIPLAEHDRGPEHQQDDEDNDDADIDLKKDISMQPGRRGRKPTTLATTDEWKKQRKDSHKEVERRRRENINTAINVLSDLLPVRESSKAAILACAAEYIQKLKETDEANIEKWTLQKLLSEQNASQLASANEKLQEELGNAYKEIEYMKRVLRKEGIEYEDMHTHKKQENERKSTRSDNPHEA
Notes: whole 60-bp probe, lowest competitor level
TTTAATGGTCCAAAGCATGTGCTAAACTGCCACAGA: 116 a.u.
AAATTACTAAGTTGTCACGTGACTTACCCCGTATGA: 29700 a.u.
CGGGGTTAAGTTTGTCACTACACTTGCTTGCAGCAG: 74.8 a.u.
CTGCCTAACAGGATGCACATGTTTGTTTATTGCTGA: 187 a.u.
AAGCCACTTTTCCATCACGTTTCTTAGCGTTATTCC: 385 a.u.
CGTCCTAGTGATTGGCACGTGTTTTCCATGAGGAAG: 2030 a.u.
CATACCCAACCTTGCAGTGTGGGTGAAGATATTTGT: 66.2 a.u.
CGGGGTTAAGTTTGATAAGTGGGTGGCTTGCAGCAG: 70.4 a.u.

Mixed results
FKH2 DNA-binding domain: Fork head protein homolog 2, DNA-binding domain (FKH2, Saccharomyces cerevisiae, UniProt P41813, residues 280-520)
Sequence of UniProt P41813 (280-520, looked up): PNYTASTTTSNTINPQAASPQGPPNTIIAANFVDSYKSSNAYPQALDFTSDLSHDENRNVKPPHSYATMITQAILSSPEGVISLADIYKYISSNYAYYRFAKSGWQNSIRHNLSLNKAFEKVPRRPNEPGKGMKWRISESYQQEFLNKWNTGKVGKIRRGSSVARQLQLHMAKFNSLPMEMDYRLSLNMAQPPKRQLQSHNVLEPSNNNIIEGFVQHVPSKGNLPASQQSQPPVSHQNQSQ
CACAACA  relative binding free energy (FKH2 DNA-binding domain; SELEX-seq; double-stranded DNA, one strand shown, in vitro; not given, 7-bp core, flanks averaged; relative to: best-binding core, lower = stronger binding): 0.797 ddG/RT
COc1cc2c(N3CCN(C(=O)Nc4ccc(OC(C)C)cc4)CC3)ncnc2cc1OCCCN1CCCCC1  remaining activity (CHEK1 (Homo sapiens, UniProt O14757); enzyme activity, inhibitor; 0.5 µM; relative to: control): 108%
COc1ccc2c(O[C@@H]3C[C@H]4C(=O)N[C@]5(C(=O)O)CC5/C=C\CCCCC[C@H](NC(=O)OC5CCCC5)C(=O)N4C3)cc(-c3csc(NC(=O)C(C)C)n3)nc2c1C (some centres unmarked)  remaining binding (CSK (Homo sapiens, UniProt P41240); cell-free assay, competition with immobilised ligand; 1 µM): 100%
GTAAACA  relative binding free energy (FKH2 DNA-binding domain; SELEX-seq; double-stranded DNA, one strand shown, in vitro; not given, 7-bp core, flanks averaged; relative to: best-binding core, lower = stronger binding): 0 ddG/RT

Excerpt of the above (sample 1):
ATTATGCA: 0.314
CGATTACA: 0.121
